Measurements collected from several papers.
A part holds a random share of what one study measured.
Sequence of UniProt P60842 (whole entry, looked up): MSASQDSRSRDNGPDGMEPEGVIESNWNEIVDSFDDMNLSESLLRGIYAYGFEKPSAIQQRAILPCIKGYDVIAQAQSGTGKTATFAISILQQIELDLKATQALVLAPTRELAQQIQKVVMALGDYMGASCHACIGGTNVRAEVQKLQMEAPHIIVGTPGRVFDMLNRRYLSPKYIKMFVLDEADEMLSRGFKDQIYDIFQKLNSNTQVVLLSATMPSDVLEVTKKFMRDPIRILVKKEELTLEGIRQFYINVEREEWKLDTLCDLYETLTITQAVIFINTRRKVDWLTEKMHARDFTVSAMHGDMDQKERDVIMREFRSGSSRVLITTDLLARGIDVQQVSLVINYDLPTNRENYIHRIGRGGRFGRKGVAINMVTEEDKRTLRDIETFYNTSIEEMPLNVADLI

Study 1
Cell line: HEK-293T
Read-out: pseudovirus infection
Organism: VSV pseudotyped with SARS-CoV-2 spike
Tested at: 10 µM
Time: 16 h
Relative to: vehicle-treated
With `C=C1CC[C@@]2(O)[C@H]3Cc4ccc(O)c5c4[C@@]2(CCN3CC2CC2)[C@H]1O5` the GFP-positive cells was 91.8%.
With `COc1c(C)c2c(c(O)c1C/C=C(\C)CCC(=O)O)C(=O)OC2` the GFP-positive cells was 5.81%.
For `Nc1cccc2c1C(=O)N(C1CCC(=O)NC1=O)C2=O` (stereo not shown), the GFP-positive cells was 98.5%.
The GFP-positive cells of `O=C(O[C@H]1C[N+]2(CCCOc3ccccc3)CCC1CC2)C(O)(c1cccs1)c1cccs1` is reported as 84.1%.

Study 2
Target: Replicase polyprotein 1ab, nsp13 helicase (rep, Severe acute respiratory syndrome coronavirus 2, UniProt P0DTD1)
Action: inhibitor
Tested at: 20 µM
The inhibition of `Cc1cc2c(cc1S(N)(=O)=O)S(=O)(=O)CCC2` is reported as 2.75%.
`CC[C@@H]1C(=O)OC[C@@H]1Cc1cncn1C` has an inhibition of -4.94%.
The inhibition of `NC(=O)[C@@H]1CC[C@@H]2CN1C(=O)N2OS(=O)(=O)O` is reported as 7.74%.
For `CN(C)C(=O)c1cc2cnc(Nc3ccc(N4CCNCC4)cn3)nc2n1C1CCCC1`, the inhibition was 12.2%.
`CN1c2c(oc(=O)n(-c3ccccn3)c2=O)-c2ccccc2S1(=O)=O` has an inhibition of 2.71%.
The inhibition of `CN[C@@H]1CCc2[nH]c3ccc(C(N)=O)cc3c2C1` is reported as -1.33%.
With `CC(C)(Oc1ccc(Cl)cc1)C(=O)OCCOC(=O)c1cccnc1` the inhibition was 1.86%.
The inhibition of `CCCOc1ccn2c(C(C)=O)cc(-c3ccccc3S(C)(=O)=O)c2c1` is reported as 1.73%.
With `COc1ccccc1OC(=O)c1ccccc1OC(C)=O` the inhibition was -0.21%.
`O=C1NC(c2cccc([N+](=O)[O-])c2)=CCN1c1ccccc1O` has an inhibition of -0.2%.
`COC(=O)[C@@H]1CC2=CC(=O)CC[C@]2(C)[C@@]23O[C@@H]2C[C@@]2(C)[C@@H](CC[C@@]24CCC(=O)O4)[C@H]13` has an inhibition of 0.33%.
`CCC1(c2ncc[nH]2)Cc2ccccc2O1` (stereo not shown) gave an inhibition of 2.79%.
`CN[C@@H](C)C(=O)N[C@H]1CCCC[C@H]2CC[C@@H](C(=O)N[C@@H](c3ccccc3)c3cn(CCCCc4ccc(CCCCn5cc([C@@H](NC(=O)[C@@H]6CC[C@@H]7CCCC[C@H](NC(=O)[C@H](C)NC)C(=O)N76)c6ccccc6)nn5)cc4)nn3)N2C1=O` gave an inhibition of 3.09%.
The inhibition of `CCN1C(C)(C)CC(Oc2ccc(C(=O)Nc3ccc(NC(=O)Nc4cc(C(C)(C)C)on4)cc3)nc2)CC1(C)C` is reported as 11.8%.
The inhibition of `CN1C/C=C/CCOc2cccc(c2)-c2ccnc(n2)Nc2cccc(c2)C1` is reported as 9.5%.
`CC[C@@H]1/C=C(\C)C[C@H](C)C[C@H](OC)[C@H]2O[C@@](O)(C(=O)C(=O)N3CCCC[C@H]3C(=O)O[C@H](/C(C)=C/[C@@H]3CC[C@@H](O)[C@H](OC)C3)[C@H](C)[C@@H](O)CC1=O)[C@H](C)C[C@@H]2OC` gave an inhibition of 0.77%.
`CCOc1ccc(Nc2nc(-c3c(C)nc4ccccn34)cs2)cc1` gave an inhibition of 82.6%.
The inhibition of `Cc1ncc(-c2csc(N=C(N)N)n2)[nH]1` is reported as 0.49%.
`CCn1nc(C2CCN(C(=O)CCO)CC2)nc1-c1cnc(N)c(-c2nnc(C(C)(C)C)o2)n1` gave an inhibition of 0.95%.
The inhibition of `CCN1C[C@]2(OC(=O)c3ccccc3NC(C)=O)CC[C@H](OC)[C@@]34[C@@H]2C[C@@H]([C@@H]13)[C@@]1(O)C[C@H](OC)[C@H]2C[C@@H]4[C@]1(O)[C@H]2OC` is reported as 5.03%.
With `CC[C@@H](NC(C)C)[C@@H](O)c1ccc(O)c2[nH]c(=O)ccc12` the inhibition was 2.61%.
With `O=c1[nH]c2cc(C(F)(F)F)c(N3CCOCC3)cc2n(CP(=O)(O)O)c1=O` the inhibition was -2.88%.
For `OC(CCN1CCCCC1)(c1ccccc1)C1CCCCC1` (stereo not shown), the inhibition was -1.56%.
`C=C1[C@@H](C)[C@H]2[C@H](Cc3ccccc3)NC(=O)[C@]23OC(=O)/C=C/[C@H](O)CCC[C@@H](C)C/C=C/[C@H]3[C@@H]1O` has an inhibition of 1.51%.
For `CCCCC(=O)O[C@]1(C(=O)CO)[C@@H](C)C[C@H]2[C@@H]3CCC4=CC(=O)C=C[C@]4(C)[C@@]3(F)[C@@H](O)C[C@@]21C`, the inhibition was 1.05%.

Study 3
Target: Ras GTPase-activating protein-binding protein 1, full length (G3BP1, Homo sapiens, UniProt Q13283)
Sequence of UniProt Q13283 (whole entry, looked up): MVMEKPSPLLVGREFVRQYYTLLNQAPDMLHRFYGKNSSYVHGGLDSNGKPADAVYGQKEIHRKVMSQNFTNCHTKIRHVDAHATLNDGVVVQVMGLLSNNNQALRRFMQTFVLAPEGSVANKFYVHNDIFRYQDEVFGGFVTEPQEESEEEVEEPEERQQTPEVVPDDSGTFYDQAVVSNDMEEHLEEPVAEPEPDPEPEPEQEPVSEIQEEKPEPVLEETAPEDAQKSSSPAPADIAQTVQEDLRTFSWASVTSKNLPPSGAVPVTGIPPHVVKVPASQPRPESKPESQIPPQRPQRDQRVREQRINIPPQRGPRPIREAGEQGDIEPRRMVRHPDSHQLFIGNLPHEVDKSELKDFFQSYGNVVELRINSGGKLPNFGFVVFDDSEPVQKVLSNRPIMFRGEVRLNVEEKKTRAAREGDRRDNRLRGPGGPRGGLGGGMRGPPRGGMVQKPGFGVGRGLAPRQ
Method: RNA Bind-n-Seq
Form: RNA
Sample: in vitro
Tested at: 200 nM
Notes: whole 134-nt RNA, ends assumed
With: 150 mM LiCl
Relative to: input library
Reading: higher = stronger binding
Each molecule: 7-deaza-guanosine replaces G
`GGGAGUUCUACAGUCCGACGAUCUGGGAGGUGGAUUUUGUUUAUUUUUUUAGCUCAUUUCCAGGGGUGGGAAUUUUUUUUCAAUAUGUGUCAUGAAUAAAGUUGUUUUUGAAAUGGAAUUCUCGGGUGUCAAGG` gave a log2 enrichment of -0.108.
`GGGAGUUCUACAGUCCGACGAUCUGGGAGGUGGAUUUUGUUUAUUUUUUUAGCUCAUUUCCAGGGGUGGGAAUUCUUUUUUAAUAUGUGUCAUGAAUAAAGUUGUUUUUGAAAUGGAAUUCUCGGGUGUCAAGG` has a log2 enrichment of -0.0589.
For `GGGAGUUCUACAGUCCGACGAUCCACAGACAACACGCACCCACACAGACACAGAGGGAAGGGGUUGGGAUGGGGACAGGGUGCACAGCAGGGCGGGAAAGGACCCCAGCCCCUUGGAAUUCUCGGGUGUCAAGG`, the log2 enrichment was 1.18.
For `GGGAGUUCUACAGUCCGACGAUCUCCUGUGCUACACAUCGUAUGUACCGAAUCGGCCCCCCGGCCCCCCGGGCCCCCCGGGGAAAGUAUUAUGUUACGCCGUUCGGAUCUGCAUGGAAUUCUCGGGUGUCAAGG`, the log2 enrichment was -0.125.
For `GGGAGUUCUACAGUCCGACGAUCCACAGACAACACGCACCCACACAGACAAAAAGGGAAGGGGUUGGGAUGGGGACAGGGUGCACAGCAGGGCGGGGUAGGACCCCAGCCCCUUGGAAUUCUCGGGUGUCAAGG`, the log2 enrichment was -0.424.
For `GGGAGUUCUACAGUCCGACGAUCUGGGAGGUGGAUUUUGUUUAUUUUUUUAGCUCAUCUCCAGGGGUGGGAAUUUUUUUUUAAUAUGUGUCAUGAAUAAAGUUGUUUUUGAAAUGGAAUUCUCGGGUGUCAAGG`, the log2 enrichment was -0.341.
`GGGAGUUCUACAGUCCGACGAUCCCUGUGCUACACAUCGUAUGUACCGAAUCGGGGUUUUUUUGGGGAAAAAGGGGAAAGGGGAAAGUAUUAUGUUACGCCGUUCGGAUCUGCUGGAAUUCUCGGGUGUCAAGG` gave a log2 enrichment of -0.307.
`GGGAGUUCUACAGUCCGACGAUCCUGUGCUACACAUCGUAUGUACCGAAUCGGGGUUUUUUUGGUUUUUUUGGGUUUUUUUGGGAAAGUAUUAUGUUACGCCGUUCGGAUCUGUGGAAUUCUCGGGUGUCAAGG` has a log2 enrichment of 0.819.

Study 4
Organism: SARS-CoV-2
Read-out: cytopathic effect
Cells: Vero E6
Tested at: 10 µM
The inhibition of `Oc1cc2c(cc1O)[C@H]1c3ccccc3CN[C@@H]1CC2` (racemic) is reported as 16.7%.
With `C[n+]1c2cc(N)ccc2cc2ccc(N)cc21` the inhibition was 9.7%.
`CCN1CCN(C(c2ccc(C(F)(F)F)cc2)c2ccc3cccnc3c2O)CC1` (stereo not shown) gave an inhibition of -10.5%.

Study 5
Target: RING finger protein unkempt homolog, zinc fingers 1-6, SBP tag (UNK, Homo sapiens, UniProt Q9C0B0, residues 30-357)
Sequence of UniProt Q9C0B0 (30-357, looked up): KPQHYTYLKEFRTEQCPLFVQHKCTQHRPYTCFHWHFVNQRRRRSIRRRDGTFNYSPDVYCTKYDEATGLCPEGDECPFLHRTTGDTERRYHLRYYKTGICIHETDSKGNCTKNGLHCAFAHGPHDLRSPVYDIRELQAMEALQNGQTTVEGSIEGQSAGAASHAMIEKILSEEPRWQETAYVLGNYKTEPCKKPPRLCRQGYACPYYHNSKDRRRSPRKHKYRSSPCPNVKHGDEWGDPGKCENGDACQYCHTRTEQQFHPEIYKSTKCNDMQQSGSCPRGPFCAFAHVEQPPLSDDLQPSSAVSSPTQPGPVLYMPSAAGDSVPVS
Method: RNA Bind-n-Seq
Form: RNA
Sample: in vitro
Tested at: 100 nM
Notes: RNA with constant flanks, vertebrate orthologous sites, ends assumed
Relative to: input RNA pool
Reading: higher = stronger binding
With `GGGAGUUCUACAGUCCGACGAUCUUUCUGCCUUUCUCCCCCUUACUUCUUACUUUAAAACCCUUCCCCCUCUUUUUUUUAAAGGCAUAGGUAGUAACAUUAGAAAAAAGACAUUUUUGGGCAAAGCAUGUGAAUAAACAUUGACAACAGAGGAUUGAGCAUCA` the bound/input enrichment was 1.32 ratio.
With `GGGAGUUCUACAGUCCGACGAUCUAUUUAGGACAACUGGAAGAAUAGCAUAUGAAAUCAACAAGUAGGAAUAGUCAAGGAGAGAAGUUACAAAUAGAGGUAGCCAAGUGACUAAAAGGAGGGAGAUGAAGGUCAUUGAAAUUCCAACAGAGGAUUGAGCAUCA` the bound/input enrichment was 0.97 ratio.
`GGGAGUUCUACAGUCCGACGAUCAGAAAAUUUUAACCAUGAAUCUGAAAGUAGAAAUACAGGUCCAUGGUUAUCUUCCUCACUUAGAAAUAGAUGCACACCUUUGUUCUCUAGAAGGAGAAGAGAGGGAAGAGAUGAAUCUUCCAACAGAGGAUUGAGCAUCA` has a bound/input enrichment of 0.953 ratio.
With `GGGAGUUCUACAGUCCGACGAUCUAUAAGAACUCGUGCAGUCUUAGAUGUUUUAAAAAUAUAUAUCUGAAUUGUAAGAGUUGUUAGCACAAGUUUUUUUUUUUUAAGCACUUGUUUUGGGUACAAGGCAUUUCUGACAUUUUACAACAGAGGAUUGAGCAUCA` the bound/input enrichment was 0.297 ratio.
`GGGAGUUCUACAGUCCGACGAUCAGUAGUUGUAAGCUUGUUUGCACAGUUCUUUUUUUCCAUUGGAAAUGGAAUUCAUUGCCUUAGGUCUUUUUAAAUAGUGUAUUAUCGUUGGGGCUGGCUCUGUGCUUGAAAACCAGUUUACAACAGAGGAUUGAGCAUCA` gave a bound/input enrichment of 2.88 ratio.
`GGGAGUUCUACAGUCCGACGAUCCAGGGAUGGCCCCAACCCCACCUCUGUCCAUUCUGUAAACUACAACCUGUAAAUAACGUUUAGCAUUCCUAUUGUAACAAAAUUAAUUUUUAUGAAAUAAAUUAUAUUUCCUAGUCUAAUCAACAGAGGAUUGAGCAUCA` has a bound/input enrichment of 1.01 ratio.
With `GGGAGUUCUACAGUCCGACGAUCUCCUCAACUUGUUCUAGCUUGUGAUCCUUCAAAUUUGGAUCAUGCAUUAGUGCUAGAUUCUAGAAAUUUUCUCUUCUCUUUCGACUGAUCAGAGAAACAUGCAUUAAAAACAAAUACAGGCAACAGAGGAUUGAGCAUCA` the bound/input enrichment was 1.36 ratio.
For `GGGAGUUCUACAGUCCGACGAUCCUGUUGUGUGAAAUAUGUCUACCAAGAGAAGUAUCACACCAUAAACAUUGUCAAAUAAUUUAGCUACAAUCUUCUUAGAUACCAAAUUAUAUGUCAAGCAUUUAAAGUGAAUUUGAGAUGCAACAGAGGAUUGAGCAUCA`, the bound/input enrichment was 0.389 ratio.

Study 6
Target: Transcription factor Sp1 (SP1, Homo sapiens, UniProt P08047, residues 1-785, full length assumed)
Sequence of UniProt P08047 (whole entry, looked up): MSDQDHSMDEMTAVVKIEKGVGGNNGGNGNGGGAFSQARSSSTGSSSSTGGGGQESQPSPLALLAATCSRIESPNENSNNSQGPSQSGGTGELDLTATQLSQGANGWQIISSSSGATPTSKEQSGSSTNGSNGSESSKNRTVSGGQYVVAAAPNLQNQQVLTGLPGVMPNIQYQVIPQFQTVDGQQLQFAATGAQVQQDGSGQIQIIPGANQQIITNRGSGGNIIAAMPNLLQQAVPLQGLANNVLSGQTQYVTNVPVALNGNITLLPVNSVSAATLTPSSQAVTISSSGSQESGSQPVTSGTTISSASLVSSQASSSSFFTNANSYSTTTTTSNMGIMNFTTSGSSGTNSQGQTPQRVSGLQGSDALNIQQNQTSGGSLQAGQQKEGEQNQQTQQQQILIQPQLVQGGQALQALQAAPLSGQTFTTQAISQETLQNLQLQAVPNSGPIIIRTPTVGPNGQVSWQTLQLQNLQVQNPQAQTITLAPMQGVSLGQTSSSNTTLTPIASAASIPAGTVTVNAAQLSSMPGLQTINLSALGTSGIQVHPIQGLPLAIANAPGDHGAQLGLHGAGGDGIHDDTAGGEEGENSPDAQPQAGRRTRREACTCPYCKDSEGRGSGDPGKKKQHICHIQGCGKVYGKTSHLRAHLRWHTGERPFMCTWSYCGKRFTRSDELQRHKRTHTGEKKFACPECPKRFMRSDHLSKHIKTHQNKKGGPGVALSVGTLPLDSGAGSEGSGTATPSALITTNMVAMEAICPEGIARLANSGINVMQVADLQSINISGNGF
Method: protein-binding microarray
Form: double-stranded DNA, one strand shown
Sample: in vitro
Tested at: not given
Notes: k-mer, scored over probes, only values ≥0.25
Reading: higher = stronger binding
`CGCCCCAC` has an E-score of 0.458.
`ATACATAT` gave an E-score of 0.284.
`GGGCGTAA` gave an E-score of 0.344.

Other studies, line by line
`UUCA`: “4-mer enrichment Z-score” -1.44 (Eukaryotic initiation factor 4A-I (EIF4A1, Homo sapiens, UniProt P60842, residues 1-406, full length assumed); RNA Bind-n-Seq; RNA, in vitro; 15 pmol, 4-mer, random 30-nt RNA, single round, with: 3 µM RocA, 2 mM AMP-PNP; relative to: mean of 4-mers, higher = stronger binding).

Repeated from above (other studies, line by line):
`UUCA`: “4-mer enrichment Z-score” -1.44 (Eukaryotic initiation factor 4A-I (EIF4A1, Homo sapiens, UniProt P60842, residues 1-406, full length assumed); RNA Bind-n-Seq; RNA, in vitro; 15 pmol, 4-mer, random 30-nt RNA, single round, with: 3 µM RocA, 2 mM AMP-PNP; relative to: mean of 4-mers, higher = stronger binding).
